Assay results gathered from unrelated publications.
Parts stem from different laboratories: compare values within a part only. Positions count from the first letter of the parent shown.

Set 1 — method: protein binding microarray; form: double-stranded DNA, one strand shown; medium: in vitro; tested at: not given; relative to: not given; direction: higher = stronger binding
Target: Histone acetyltransferase KAT6A, winged helix 2, GST fusion (KAT6A, Homo sapiens, UniProt Q92794, residues 85-181)
Notes: 8-mer, flanks averaged, mean of 2 arrays, mostly near background
Construct (chain): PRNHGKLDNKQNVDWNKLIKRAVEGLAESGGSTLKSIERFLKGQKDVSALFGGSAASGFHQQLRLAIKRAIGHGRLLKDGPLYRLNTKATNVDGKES
With `GAACCGAC` the E-score was 0.2.
`GCTGCACA` gave an E-score of -0.0296.
`ATCCACAT` gave an E-score of -0.0678.
The E-score of `GGCAACCA` is reported as 0.0216.
`CGGTTGTA` has an E-score of -0.0897.
With `CAAGCCTC` the E-score was -0.0132.
For `GCATATTA`, the E-score was -0.039.
`ACATCTCC` has an E-score of -0.105.
`CTGCGCGA` has an E-score of 0.0956.
The E-score of `TCTCACAA` is reported as -0.00724.
With `GCCAGCCA` the E-score was 0.0443.
With `AACAACTA` the E-score was -0.188.
`ACAGATAT` has an E-score of -0.0817.
`CACTGTTC` has an E-score of -0.0288.
With `CAGCCCCA` the E-score was 0.018.
The E-score of `CCCAGGAG` is reported as -0.00438.
`ATTCCAAG` has an E-score of 0.152.
`CAACATAA` gave an E-score of 0.00562.
`ACACGACC` gave an E-score of 0.0693.
The E-score of `CCCTCGTA` is reported as -0.0749.
`ATAGGGGC` gave an E-score of -0.0629.
For `GGCACCTA`, the E-score was -0.123.
For `TGGTAGAA`, the E-score was -0.0312.
`GGCGCGAA` has an E-score of 0.302.
`AGATAGTG` gave an E-score of -0.0753.

Set 2 — target: CCND3, cyclin fold, Cln2 fusion (human); method: yeast growth competition, sequencing; medium: yeast; notes: weak parent motif; relative to: not given; direction: higher = stronger binding
Parent: CDC25A docking peptide (human); PPHRRRLLFACSP; partner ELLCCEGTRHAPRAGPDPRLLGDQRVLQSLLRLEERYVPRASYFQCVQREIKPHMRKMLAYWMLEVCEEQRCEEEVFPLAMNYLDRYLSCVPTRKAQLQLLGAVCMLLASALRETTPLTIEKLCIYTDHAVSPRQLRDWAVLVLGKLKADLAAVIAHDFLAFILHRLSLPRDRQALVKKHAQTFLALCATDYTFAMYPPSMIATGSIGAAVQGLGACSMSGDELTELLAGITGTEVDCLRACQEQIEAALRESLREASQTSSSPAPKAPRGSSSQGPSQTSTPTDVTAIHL
Under “normalised enrichment score”, `PPHPRRLLFACSP [R4P]` is recorded as 0.11.
Under “normalised enrichment score”, `PPHRRRLLFQCSP [A10Q]` is recorded as 0.16.
`PPHRRRLLFACTP [S12T]`: “normalised enrichment score” 0.102.
`PPHRCRLLFACSP [R5C]` — result for “normalised enrichment score”: 0.101.
`PPHRRRLLIACSP [F9I]`: “normalised enrichment score” 0.137.
Under “normalised enrichment score”, `PPHRRRLHFACSP [L8H]` is recorded as 0.102.
Under “normalised enrichment score”, `PPHRRRLLFAISP [C11I]` is recorded as 0.141.
`PPHRRRLAFACSP [L8A]` — result for “normalised enrichment score”: 0.135.
For `PPHRRRLLFACSS [P13S]`, “normalised enrichment score” read 0.0981.
`PPHRVRLLFACSP [R5V]`: “normalised enrichment score” 0.161.
For `PPHRRRLLAACSP [F9A]`, “normalised enrichment score” read 0.155.
Under “normalised enrichment score”, `PPHRRRLLPACSP [F9P]` is recorded as 0.134.
For `PPHRRRLLFARSP [C11R]`, “normalised enrichment score” read 0.119.
`PPHRRRLLFACSW [P13W]` — result for “normalised enrichment score”: 0.116.
For `PPHRRRLLFACSH [P13H]`, “normalised enrichment score” read 0.136.
`PPHRRRLLFACSR [P13R]` — result for “normalised enrichment score”: 0.0928.
`PPHRRRLYFACSP [L8Y]` — result for “normalised enrichment score”: 0.176.
`PPHRRTLLFACSP [R6T]`: “normalised enrichment score” 0.13.
Under “normalised enrichment score”, `PPHRRRLLFACRP [S12R]` is recorded as 0.16.

Set 3 — method: RNA Bind-n-Seq; form: RNA; medium: in vitro; tested at: 100 nM; relative to: input RNA pool; direction: higher = stronger binding
Target: RING finger protein unkempt homolog, zinc fingers 1-6, SBP tag (UNK, Homo sapiens, UniProt Q9C0B0, residues 30-357)
Chain of UniProt Q9C0B0 (30-357, looked up): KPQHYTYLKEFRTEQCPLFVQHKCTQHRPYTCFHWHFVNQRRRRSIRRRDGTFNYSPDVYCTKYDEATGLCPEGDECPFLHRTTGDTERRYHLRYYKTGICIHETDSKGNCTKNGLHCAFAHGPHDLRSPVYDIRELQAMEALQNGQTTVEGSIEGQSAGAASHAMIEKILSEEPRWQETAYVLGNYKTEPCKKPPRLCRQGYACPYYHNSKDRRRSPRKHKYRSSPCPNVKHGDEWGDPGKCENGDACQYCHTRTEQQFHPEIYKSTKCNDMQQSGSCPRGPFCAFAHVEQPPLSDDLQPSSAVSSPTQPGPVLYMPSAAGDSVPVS
Notes: RNA with constant flanks, vertebrate orthologous sites, ends assumed
`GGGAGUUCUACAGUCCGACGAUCAAGUAUCCCAGUUUACUGUGUUGAGUUGGCAUUGUACAGAAAUUAACAGCCAUAUUGGUCUAGAAAUGUUAAACUUAAUUUUUUUCCAUUUGUACAGGGGUAACACACUGUAUUAAAUAUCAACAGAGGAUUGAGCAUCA` has a bound/input enrichment of 0.526 ratio.
For `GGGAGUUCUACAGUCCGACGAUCAUUUUUAAAAGUUUUUUUAAUUUAAUUUUUCCUUUUGGGGGUAAAGUUUGCUCUACCAAAUAGUGAUCGUAACAAAUUGAUCUGUUUUGGAUGUUGCUAUAGUGACAUGCAGUUAUAUAUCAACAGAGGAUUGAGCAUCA`, the bound/input enrichment was 0.58 ratio.
The bound/input enrichment of `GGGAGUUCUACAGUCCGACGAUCGUGACUUUGGAAGUCCGCAGUGUCUCAUUGCAGAUAAUUUUUAGCUUAGGGCCUGGUGGCUGGGUCGGUUCUCUCCUUUCCAAUCGGAGACCUCUGCCGCAAACAUGCUCCGCCAGAUCACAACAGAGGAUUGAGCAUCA` is reported as 0.439 ratio.
`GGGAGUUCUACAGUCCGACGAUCUACUGUUGUUAAGCACUGUUCCAGACCGUGUCUGAUUUUAGUGUAACCUAGGAGAUUUUAUAGUUUUAUUUUAAUGGAAUCCUGCCUGACGCAGAGCAGUGGGGAGAGCAGUGUCUUCUGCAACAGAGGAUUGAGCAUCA` gave a bound/input enrichment of 2.7 ratio.
The bound/input enrichment of `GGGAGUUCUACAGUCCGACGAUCAAAUGCCUUCUGUUCCAUUAAGAAGAACAAAUCUAGUCCCCCAGGUAUAAAACUCCUAAAUAGCUAUUUUUGAAAUGAAAAUGUUUAAAUUUUGUAAAUCAGCUGUUGCCACUAUACAACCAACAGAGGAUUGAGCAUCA` is reported as 1.01 ratio.
With `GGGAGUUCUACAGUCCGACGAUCUCCAGGGGCUGGUAGAGUAGGUCCUGUGCCCCUGAGAGUGUCUUUCUUUGUUUUAUUGUCCUCGGGGGGGGGGGGGGGUGCACACCGACCCUGAGGCAUGAGCUUUGUGGUUCAUCUCGUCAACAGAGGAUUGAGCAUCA` the bound/input enrichment was 0.706 ratio.

Set 4 — method: RNA Bind-n-Seq; form: RNA; medium: in vitro; tested at: 200 nM; notes: whole 134-nt RNA, ends assumed; with: 150 mM KCl; relative to: input library; direction: higher = stronger binding
Target: Fragile X messenger ribonucleoprotein 1, C-terminal low-complexity region (Fmr1, Mus musculus, UniProt P35922)
The log2 enrichment of `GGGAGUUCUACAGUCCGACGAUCAGUCCUGUGCUACACAUCGUAUGUACCGAAUCGGGAAAAAGGGUUUGGGAAAAAGGGAAAGUAUUAUGUUACGCCGUUCGGAUCUGCACUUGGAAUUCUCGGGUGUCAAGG` is reported as -0.308.
With `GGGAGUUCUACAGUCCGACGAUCAAGUCCUGUGCUACACAUCGUAUGUACCGAAUCGGGUGGGAAAAAAAGGGAAAGGGAAAGUAUUAUGUUACGCCGUUCGGAUCUGCACUUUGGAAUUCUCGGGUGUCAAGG` the log2 enrichment was 0.575.
`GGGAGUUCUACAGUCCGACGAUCAAGUCCUGUGCUACACAUCGUAUGUACCGAAUCGGGGUUUUUGGGGUGGGGAGGGGAAAGUAUUAUGUUACGCCGUUCGGAUCUGCACUUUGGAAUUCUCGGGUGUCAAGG` has a log2 enrichment of 1.19.
For `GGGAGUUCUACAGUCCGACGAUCACCAUGCAGGUGGGCAUCUUUGGGAAGUGAAACAAGGGGGGGAUAGGGAGGGGGGUAACACUUUGGGAACAGGUGGUCCCAGGUCGUUUCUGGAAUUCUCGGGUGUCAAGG`, the log2 enrichment was 1.2.
With `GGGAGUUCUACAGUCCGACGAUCCAAGUCCUGUGCUACACAUCGUAUGUACCGAAUCGGUUUGGAAAGGAAAAAAAGGAAAGUAUUAUGUUACGCCGUUCGGAUCUGCACUUCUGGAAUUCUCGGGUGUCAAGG` the log2 enrichment was -0.514.
`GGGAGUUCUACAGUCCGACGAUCACCAUGCAGGUGGGCAUCUUUGGGAAGUGGGGCAAGGGGGGGAUAGGGAGGGGGGUAACAUUUUGGGAACAGGUGGUCCCAGGUCGUUUCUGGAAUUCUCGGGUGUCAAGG` gave a log2 enrichment of 0.652.
For `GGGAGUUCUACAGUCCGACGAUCAGCAUGCAGGUGGGCAUCUUUGGGAAGUGGGGCAAGGGGGGGAUAGGGAGGGGGGUAACACUUUGGGAACAGGUGGUCCCAGGUCGUUUCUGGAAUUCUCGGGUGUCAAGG`, the log2 enrichment was 0.728.
The log2 enrichment of `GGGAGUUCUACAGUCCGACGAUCUAACUUUAGAGGAGGAACUGAUGGAUAUGGCAGUGGACGUGGAUUUGGGGAUGGCUAUAAUGGGUAUGGAGGAGGACCUGGAGGUGGCAAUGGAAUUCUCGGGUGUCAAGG` is reported as 0.281.
`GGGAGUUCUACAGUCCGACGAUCCCUCAAGUCCUGUGCUACACAUCGUAUGUACCGAAUCGGUGGGUGGGGUGGGGAAAGUAUUAUGUUACGCCGUUCGGAUCUGCACUUCCAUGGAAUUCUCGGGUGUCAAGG` has a log2 enrichment of 0.863.
With `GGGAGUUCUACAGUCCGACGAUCAGUCCUGUGCUACACAUCGUAUGUACCGAAUCGGGAAAAAGGGAAAGGGAAAAAGGGAAAGUAUUAUGUUACGCCGUUCGGAUCUGCACUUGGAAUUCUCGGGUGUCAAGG` the log2 enrichment was -0.285.

Repeated from above (set 1):
`ACATCTCC` has an E-score of -0.105.
`CTGCGCGA` has an E-score of 0.0956.
The E-score of `TCTCACAA` is reported as -0.00724.
With `GCCAGCCA` the E-score was 0.0443.
With `AACAACTA` the E-score was -0.188.
`ACAGATAT` has an E-score of -0.0817.
`CACTGTTC` has an E-score of -0.0288.
With `CAGCCCCA` the E-score was 0.018.
